Results of several laboratories.
Every numbered part comes from another study and shows a few of its results, in no order.
UniProt P35462, sequence (whole entry, looked up): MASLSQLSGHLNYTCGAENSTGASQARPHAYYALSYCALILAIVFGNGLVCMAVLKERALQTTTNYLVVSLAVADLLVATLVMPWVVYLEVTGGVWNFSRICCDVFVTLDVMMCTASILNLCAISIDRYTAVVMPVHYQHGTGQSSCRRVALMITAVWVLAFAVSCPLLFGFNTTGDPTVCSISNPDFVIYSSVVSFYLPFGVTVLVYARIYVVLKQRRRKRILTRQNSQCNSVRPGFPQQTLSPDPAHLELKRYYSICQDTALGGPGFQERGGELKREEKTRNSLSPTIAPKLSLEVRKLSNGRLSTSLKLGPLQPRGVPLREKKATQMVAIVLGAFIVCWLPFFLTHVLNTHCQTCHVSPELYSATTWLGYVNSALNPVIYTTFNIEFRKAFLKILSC
UniProt Q9UQM7, sequence (whole entry, looked up): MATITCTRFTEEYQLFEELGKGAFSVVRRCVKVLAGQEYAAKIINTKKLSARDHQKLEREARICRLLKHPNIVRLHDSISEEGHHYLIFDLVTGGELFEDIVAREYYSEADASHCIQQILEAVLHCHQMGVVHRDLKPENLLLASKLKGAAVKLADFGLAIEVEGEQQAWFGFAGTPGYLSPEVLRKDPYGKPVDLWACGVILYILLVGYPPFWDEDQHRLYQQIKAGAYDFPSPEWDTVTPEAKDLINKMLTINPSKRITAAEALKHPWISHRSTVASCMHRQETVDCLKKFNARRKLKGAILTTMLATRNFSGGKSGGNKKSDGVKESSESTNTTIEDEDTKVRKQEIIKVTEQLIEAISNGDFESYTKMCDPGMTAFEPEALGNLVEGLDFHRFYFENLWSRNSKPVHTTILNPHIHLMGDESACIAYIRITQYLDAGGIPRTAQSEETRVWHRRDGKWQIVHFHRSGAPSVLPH
UniProt P62344, sequence (whole entry, looked up): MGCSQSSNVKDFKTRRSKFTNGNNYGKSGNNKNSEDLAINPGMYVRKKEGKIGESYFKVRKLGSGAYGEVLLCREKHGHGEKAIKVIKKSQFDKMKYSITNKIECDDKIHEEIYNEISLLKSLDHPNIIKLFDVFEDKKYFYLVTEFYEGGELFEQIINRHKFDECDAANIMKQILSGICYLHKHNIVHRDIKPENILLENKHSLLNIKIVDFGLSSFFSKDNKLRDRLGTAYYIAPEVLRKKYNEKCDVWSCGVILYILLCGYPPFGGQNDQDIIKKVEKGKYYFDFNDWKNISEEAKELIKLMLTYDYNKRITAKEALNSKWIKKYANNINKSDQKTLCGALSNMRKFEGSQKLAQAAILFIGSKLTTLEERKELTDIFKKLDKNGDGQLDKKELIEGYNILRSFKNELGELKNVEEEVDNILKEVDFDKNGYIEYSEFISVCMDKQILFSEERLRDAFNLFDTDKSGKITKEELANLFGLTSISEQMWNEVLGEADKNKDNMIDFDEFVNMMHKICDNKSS
UniProt P04629, sequence (whole entry, looked up): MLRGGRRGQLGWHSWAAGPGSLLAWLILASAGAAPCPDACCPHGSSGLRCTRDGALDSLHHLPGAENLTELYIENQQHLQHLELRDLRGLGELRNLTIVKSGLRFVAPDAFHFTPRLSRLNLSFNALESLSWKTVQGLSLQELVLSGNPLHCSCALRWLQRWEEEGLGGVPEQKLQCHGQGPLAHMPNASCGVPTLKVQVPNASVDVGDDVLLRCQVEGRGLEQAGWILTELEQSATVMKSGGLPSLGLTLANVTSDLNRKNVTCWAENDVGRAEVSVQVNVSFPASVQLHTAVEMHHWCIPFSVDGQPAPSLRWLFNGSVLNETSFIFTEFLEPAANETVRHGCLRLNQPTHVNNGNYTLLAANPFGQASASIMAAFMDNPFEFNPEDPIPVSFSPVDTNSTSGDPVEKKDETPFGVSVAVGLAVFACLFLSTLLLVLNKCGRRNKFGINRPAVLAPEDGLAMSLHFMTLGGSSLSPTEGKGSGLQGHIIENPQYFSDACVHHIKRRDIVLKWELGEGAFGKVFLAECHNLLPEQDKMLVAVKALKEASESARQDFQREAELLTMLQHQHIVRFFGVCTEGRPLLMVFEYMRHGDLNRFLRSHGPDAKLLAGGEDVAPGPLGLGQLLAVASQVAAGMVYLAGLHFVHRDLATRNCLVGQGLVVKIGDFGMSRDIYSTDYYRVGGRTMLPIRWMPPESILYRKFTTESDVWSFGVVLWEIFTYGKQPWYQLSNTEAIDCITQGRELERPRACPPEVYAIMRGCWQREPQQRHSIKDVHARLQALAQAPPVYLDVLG
UniProt O43318, sequence (whole entry, looked up): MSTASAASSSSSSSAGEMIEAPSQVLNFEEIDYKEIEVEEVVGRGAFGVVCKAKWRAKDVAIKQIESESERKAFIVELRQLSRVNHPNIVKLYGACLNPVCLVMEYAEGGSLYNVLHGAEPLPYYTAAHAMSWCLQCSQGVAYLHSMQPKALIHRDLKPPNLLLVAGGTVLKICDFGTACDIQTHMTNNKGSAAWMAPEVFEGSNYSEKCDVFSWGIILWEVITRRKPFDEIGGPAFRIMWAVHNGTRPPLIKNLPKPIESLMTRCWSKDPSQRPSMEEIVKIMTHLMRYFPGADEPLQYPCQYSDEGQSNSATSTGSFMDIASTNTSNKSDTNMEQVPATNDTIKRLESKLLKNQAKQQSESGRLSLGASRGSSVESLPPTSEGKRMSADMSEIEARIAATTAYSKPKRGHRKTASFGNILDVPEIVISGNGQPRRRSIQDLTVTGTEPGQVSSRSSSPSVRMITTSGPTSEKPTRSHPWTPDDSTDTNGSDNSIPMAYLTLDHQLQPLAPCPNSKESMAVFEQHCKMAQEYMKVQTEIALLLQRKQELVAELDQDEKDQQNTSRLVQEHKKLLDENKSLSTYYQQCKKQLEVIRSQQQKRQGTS
UniProt Q6P2M8, sequence (whole entry, looked up): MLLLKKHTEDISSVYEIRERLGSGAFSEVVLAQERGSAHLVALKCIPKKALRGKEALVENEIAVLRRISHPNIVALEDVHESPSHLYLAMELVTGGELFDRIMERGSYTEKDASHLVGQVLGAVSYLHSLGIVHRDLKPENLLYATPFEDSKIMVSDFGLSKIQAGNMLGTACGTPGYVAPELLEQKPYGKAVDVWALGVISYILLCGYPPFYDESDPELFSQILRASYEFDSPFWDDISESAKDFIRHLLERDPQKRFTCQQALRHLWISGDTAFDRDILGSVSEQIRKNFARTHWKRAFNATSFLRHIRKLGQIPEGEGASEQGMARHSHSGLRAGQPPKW

Set 1
SMILES: COc1ccc2c(c[n+](C)c3c4cc5c(cc4ccc23)OCO5)c1OC
Observed: enzyme activity
Mode: inhibitor
Concentration: 0.5 µM
Reference: control
Quantity: remaining activity
ZAP70 (Homo sapiens, UniProt P43403): 101%
CAMK2A (Homo sapiens, UniProt Q9UQM7): 99.5%
MAP3K7 (Homo sapiens, UniProt O43318): 100%
PIM3 (Homo sapiens, UniProt Q86V86): 99.6%
NTRK1 (Homo sapiens, UniProt P04629): 89.8%

Set 2
Cell line: mouse MPNST tumor cells
Method: high-content nuclear imaging
Refers to: cell number
Concentration: 10 µM
Time: 12 h
Setting: mean of 2 replicates
Reference: plate mean
Direction: higher = more cells
Quantity: nuclei count
COc1cc2c(cc1O)C(CCc1ccc(Cl)cc1)N(C)CC2 (stereo not shown): 0.0715 z-score
CCN1CCN(C(=O)Cc2ccc(Nc3ncc(F)c(Nc4ccc(C(=O)Nc5ccccc5Cl)cc4)n3)cc2)CC1: -4.69 z-score
Cc1sc2c(c1C)C(c1ccc(Cl)cc1)=N[C@@H](CC(=O)Nc1ccc(O)cc1)c1nnc(C)n1-2: -2.76 z-score
C[C@H]1CCC/C=C/[C@@H]2C[C@H](O)C[C@H]2[C@H](O)/C=C/C(=O)O1: -5.62 z-score

Set 3
Compound: O=C1CCC(N2Cc3c(ccc4c3OCC43CCN(Cc4ccccc4)CC3)C2=O)C(=O)N1 (stereo not shown)
Target: CRBN/Zinc finger protein Helios (Homo sapiens, UniProt Q96SW2+Q9UKS7)
UniProt Q96SW2, sequence (whole entry, looked up): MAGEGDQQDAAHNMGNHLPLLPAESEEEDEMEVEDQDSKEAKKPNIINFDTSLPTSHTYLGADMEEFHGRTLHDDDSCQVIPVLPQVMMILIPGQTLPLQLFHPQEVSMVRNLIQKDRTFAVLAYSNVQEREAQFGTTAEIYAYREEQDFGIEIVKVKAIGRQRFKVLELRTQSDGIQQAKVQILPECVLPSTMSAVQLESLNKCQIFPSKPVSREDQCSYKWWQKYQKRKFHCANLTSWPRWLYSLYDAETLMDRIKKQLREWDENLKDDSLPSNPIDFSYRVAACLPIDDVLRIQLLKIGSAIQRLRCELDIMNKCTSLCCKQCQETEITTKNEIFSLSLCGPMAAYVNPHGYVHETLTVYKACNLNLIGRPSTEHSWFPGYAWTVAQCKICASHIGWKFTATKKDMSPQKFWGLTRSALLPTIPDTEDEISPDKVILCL
UniProt Q9UKS7, sequence (whole entry, looked up): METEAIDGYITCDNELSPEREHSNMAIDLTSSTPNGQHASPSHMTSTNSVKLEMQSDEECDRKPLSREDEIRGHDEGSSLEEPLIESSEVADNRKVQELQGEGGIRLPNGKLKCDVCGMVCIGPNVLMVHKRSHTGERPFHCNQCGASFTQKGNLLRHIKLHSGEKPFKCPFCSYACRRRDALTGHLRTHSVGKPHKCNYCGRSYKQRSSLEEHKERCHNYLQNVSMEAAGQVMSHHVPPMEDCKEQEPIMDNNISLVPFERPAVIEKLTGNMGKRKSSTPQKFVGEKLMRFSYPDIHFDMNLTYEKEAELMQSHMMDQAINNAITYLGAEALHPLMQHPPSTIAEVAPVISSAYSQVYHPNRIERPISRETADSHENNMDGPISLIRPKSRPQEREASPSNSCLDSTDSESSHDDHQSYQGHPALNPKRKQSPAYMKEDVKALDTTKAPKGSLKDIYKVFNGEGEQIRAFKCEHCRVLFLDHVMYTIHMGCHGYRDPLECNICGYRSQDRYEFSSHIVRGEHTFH
Mode: degrader
Method: HiBiT
Cells: HEK293
Quantity: protein remaining
123.5 nM: 80.2%
0.5081 nM, 6 h: 115%
0.5081 nM: 115%
1111.11 nM: 54.3%
3333.33 nM, 6 h: 35.2%
4.572 nM: 120%

Single results of other studies
COc1ccc2c(c1)O[C@H](c1ccc(OC)c(OC)c1)C[C@@H]2NC(=O)C1(c2ccc3c(c2)OC(F)(F)O3)CC1 — remaining binding (CDPK1 (Plasmodium falciparum, UniProt P62344); cell-free assay, competition with immobilised ligand; 1 µM): 79%
CNC(=O)Nc1ccc2c(c1)CC[C@]21OC(=O)N(CC(=O)N(Cc2ccc(F)cc2)[C@@H](C)C(F)(F)F)C1=O — inhibition (SLC6A2 (Homo sapiens, UniProt P23975); ligand displacement; 10 µM): 2.78%
O=C(NCc1ncc(C(F)(F)F)cc1Cl)c1ccc2c(c1)C1(CCS(=O)(=O)CC1)[C@@H](C1CC1)N2S(=O)(=O)c1ccc(F)cc1 — remaining binding (PNCK (Homo sapiens, UniProt Q6P2M8); cell-free assay, competition with immobilised ligand; 1 µM): 96%
CNC(=O)c1cc(C(=O)NC2CC2)cn(Cc2ccccc2)c1=O — inhibition (DRD3 (Homo sapiens, UniProt P35462); binding, radioligand binding; 10 µM): 1.54%

Excerpt of the above (set 1):
ZAP70 (Homo sapiens, UniProt P43403): 101%
PIM3 (Homo sapiens, UniProt Q86V86): 99.6%
MAP3K7 (Homo sapiens, UniProt O43318): 100%
